Measured values collected from several papers.
Protocols differ between the studies behind these lines. “And” joins repeats or separate records; there may be more than shown. ± gives the spread as reported.

C=Cc1c(C)c2cc3nc(c(CC(=O)[O-])c4[n-]c(cc5nc(cc1[n-]2)C(C)=C5CC)c(C)c4C(=O)[O-])C(CCC(=O)[O-])C3C.[Cu+2].[Na+].[Na+].[Na+] (centres unmarked) — serum AST (Wistar rat, female; oral, 1000 mg/kg daily, 28 days): 112 ± 32.9 U/L
CN1Cc2cc(Cl)ccc2-n2c(nnc2C2CCN(c3cccc([18F])n3)CC2)C1 — tissue uptake (C57BL/6 mouse male, small intestine; intravenous, 3.7 MBq, 5 min): 9.55 ± 3.79 %ID/g
CC(C)Oc1c(NC(=O)c2ccc(NC(=O)[C@H](CC(N)=O)NC(=O)c3ccc(/N=N/c4ccccc4)cc3)cc2)ccc(C(=O)Nc2ccc(C(=O)O)cc2)c1O — thermal relaxation half-life (absorbance kinetics; 45 °C, photostationary to ground state): 4 h
CC(=O)NCCCC[C@@H]1NC(=O)[C@H](Cc2c[nH]c3c(C)cccc23)NC(=O)[C@H]([C@@H](C)O)NC(=O)[C@H](CC(N)=O)NC(=O)[C@@H](NC(C)=O)C(C)(C)SSC(C)(C)[C@@H](C(=O)N[C@@H](Cc2ccc(OCCN)cc2)C(=O)N[C@@H](Cc2ccc3ccccc3c2)C(=O)NC2(C(=O)N[C@@H](CCC(=O)O)C(=O)N[C@@H](CC(N)=O)C(=O)N[C@@H](Cc3cccnc3)C(=O)N(C)CC(N)=O)CCOCC2)NC1=O — blood to plasma ratio (dog, blood; 0.0013 µM, 2 h): 0.61 ± 0.09
COC(=O)[C@H]1[C@@H](c2ccc(Cl)c(Cl)c2)C[C@@H]2CC[C@H]1N2CCOc1c2ccccc2cc2ccccc12 — pKa (fluorescence titration; buffer with 10% DMSO; 1 µM): 5.3
N#[11C]c1ccc(-c2csc(NN=C3CCCC3)n2)cc1 — radioactivity uptake (C57BL/6 mice, male, bladder; intravenous, 3 MBq, 1 min): 1.85 ± 0.6 %ID/g
COc1cnc2cccc(N3CCc4c(cc(Cn5ccnc5)cc4-c4cn(C)nc4C(F)(F)F)C3=O)c2c1 — body weight (BALB/c nude mice, MV4-11 xenograft; intraperitoneal, 50 mg/kg, day 17): 22.8 g and 23.4 g and 24.2 g and 22.6 g and 21.3 g
CCc1nn(C)c2nc(-c3ccc(C(=O)O)cc3)nc(NCc3ccccc3)c12 — concentration (male CD-1 mouse, plasma; intravenous, 1 mg/kg, 1 h): 0.229 µg/mL
CC[C@H](C)[C@H](NC(=O)[C@H](CCCCN)NC(=O)CNC(=O)[C@H](CC(C)C)NC(=O)[C@H](Cc1ccccc1)NC(=O)[C@H](CCCCN)NC(=O)[C@H](CO)NC(=O)[C@H](Cc1ccccc1)NC(=O)[C@H](Cc1c[nH]c2ccccc12)NC(=O)[C@H](CCC(N)=O)NC(=O)[C@@H](NC(=O)[C@H](Cc1ccccc1)NC(=O)CCCCCNC(=O)CN1CCN(CC(=O)O)CCN(CC(=O)O)CCN(CC(=O)O)CC1)C(C)C)C(=O)N[C@@H](CCC(=O)O)C(=O)N1CCC[C@H]1C(=O)N[C@H](CC(=O)O)C(=O)N[C@H](C(=O)N[C@@H](CO)C(=O)N[C@@H](CCC(N)=O)C(=O)N[C@H](C(=O)N[C@@H](CCC(N)=O)C(=O)N[C@@H](CC(=O)O)C(=O)N1CCC[C@H]1C(=O)N[C@@H](CC(N)=O)C(=O)N[C@@H](CC(=O)O)C(=O)N[C@@H](CCC(N)=O)C(=O)N[C@@H](Cc1ccc(O)cc1)C(=O)N[C@@H](CCC(=O)O)C(=O)N1CCC[C@H]1C(=O)N[C@@H](Cc1ccccc1)C(=O)O)C(C)C)C(C)C [copper-64 labelled] — tissue uptake (C57BL/6 mice, male, MC-38 tumour-bearing, spleen; 2 h, vehicle-treated): 1.06 ± 0.1 %ID/g
C[C@H](O)[C@@H](NC(=O)[C@H]1CCCN1C(=O)[C@@H](CCCCN)NC(=O)[C@@H](CO)NC(=O)[C@@H](Cc1ccc(O)cc1)NC(=O)[C@@H](CC(N)=O)NC(=O)CCOCCOCCOCCNC(=O)CN1CCN(CC(=O)O)CCN(CC(=O)O)CCN(CC(=O)O)CC1)C(=O)N[C@H](CC(=O)O)C(=O)N[C@H](CCCNC(=N)N)C(=O)N[C@H](CCC(N)=O)C(=O)N[C@H](Cc1ccc(O)cc1)C(=O)N[C@H](Cc1c[nH]cn1)C(=O)N[C@H](Cc1ccccc1)C(N)=O [gallium-68 labelled] — tissue uptake (ex vivo gamma counting; BALB/c nude mouse, U-87 MG xenograft, blood; intravenous, 1.85 MBq, 120 min): 0.05 ± 0.01 %ID/g
O=C1NC2(CC2)COc2ncc(F)cc2[C@H]2COCCN2c2ccn3ncc1c3n2 — organ-to-body weight ratio (Sprague-Dawley rat, male, spleen; oral, 20 mg/kg/day, 4 weeks dosing, end of recovery): 0.258 ± 0.052%
N=C(N)NCCC[C@@H](NC(=O)[C@H](N)Cc1c[nH]c2ccccc12)C(=O)N[C@H](CCCCN)C(=O)N[C@H](Cc1c[nH]c2ccccc12)C(=O)N[C@H](CCCNC(=N)N)C(=O)N[C@H](CCCCN)C(=O)N[C@H](Cc1c[nH]c2ccccc12)C(=O)N[C@H](CCCNC(=N)N)C(=O)N[C@H](CCCCN)C(=O)N[C@H](Cc1c[nH]c2ccccc12)C(=O)N[C@H](CCCNC(=N)N)C(=O)N[C@H](CCCCN)C(N)=O — cystatin C level (mouse, serum; 30 mg/kg): 40.2 ng/mL
CCCCCCCCCCCCCCCC(=O)N[C@@H](CCC(=O)NCCOCCOCCC(=O)NCCOCCOCCC(=O)NCCCC[C@H](NC(=O)[C@H](CC(=O)O)NC(=O)[C@H](CC(C)C)NC(=O)[C@H](Cc1ccc(O)cc1)NC(=O)[C@H](CCCCN)NC(=O)[C@H](CO)NC(=O)[C@H](Cc1ccc(O)cc1)NC(=O)[C@H](CC(=O)O)NC(=O)[C@H](CO)NC(=O)[C@@H](NC(=O)[C@H](Cc1ccccc1)NC(=O)[C@@H](NC(=O)CNC(=O)[C@H](CCC(N)=O)NC(=O)[C@@H](CO)NC(=O)[C@@H](N)Cc1c[nH]cn1)[C@@H](C)O)[C@@H](C)O)C(=O)N[C@@H](CCCNC(=N)N)C(=O)N[C@@H](CCCNC(=N)N)C(=O)N[C@@H](C)C(=O)N[C@@H](CCC(N)=O)C(=O)N[C@@H](CC(=O)O)C(=O)N[C@@H](Cc1ccccc1)C(=O)N[C@H](C(=O)N[C@@H](CCC(N)=O)C(=O)N[C@@H](Cc1c[nH]c2ccccc12)C(=O)N[C@@H](CC(C)C)C(=O)N[C@@H](CC(C)C)C(=O)N[C@@H](CC(N)=O)C(=O)N[C@H](C(=O)NCC(=O)NCC(=O)N1CCC[C@H]1C(=O)N[C@@H](CO)C(=O)N[C@@H](CO)C(=O)NCC(=O)N[C@@H](C)C(=O)N1CCC[C@H]1C(=O)N1CCC[C@H]1C(=O)N1CCC[C@H]1C(=O)N[C@@H](CO)C(N)=O)[C@@H](C)O)C(C)C)C(=O)O — serum enzyme activity (measured: ALP; rhesus monkey, male; subcutaneous, 60 µg/kg once daily, 28 days): 300 ± 107 U/L
CC1(C)C(=O)N(c2ccc(C#N)c(C(F)(F)F)c2)C(=S)N1c1ccc(C(=O)O)c(F)c1 — AUC (male human, plasma; oral, 80 mg, single dose, fasted): 25 µg·h/mL
CCN(CC)CCOc1ccc(-c2nnn(Cc3ccc(OC)cc3)c2N)cc1 — remaining compound (human plasma; 120 min): 104%
CSCC[C@H](N)C(=O)N[C@@H](C)C(=O)N[C@@H](Cc1c[nH]c2ccccc12)C(=O)N[C@@H](Cc1c[nH]cn1)C(=O)N[C@@H](CC(=O)O)C(=O)N[C@@H](CC(=O)O)C(=O)N[C@@H](CCC(=O)O)C(=O)N[C@@H](CCC(=O)O)C(=O)N[C@@H](Cc1ccccc1)C(=O)N[C@@H](C)C(=O)N[C@@H](CCCNC(=N)N)C(=O)N[C@@H](CCCNC(=N)N)C(=O)N[C@@H](CCCNC(=N)N)C(=O)N[C@@H](CCCNC(=N)N)C(=O)NCCCCCC(=O)NCCCCC(NC(=O)CCCCCNC(=O)[C@H](CCCNC(=N)N)NC(=O)[C@H](CCCNC(=N)N)NC(=O)[C@H](CCCNC(=N)N)NC(=O)[C@H](CCCNC(=N)N)NC(=O)[C@H](C)NC(=O)[C@H](Cc1ccccc1)NC(=O)[C@H](CCC(=O)O)NC(=O)[C@H](CCC(=O)O)NC(=O)[C@H](CC(=O)O)NC(=O)[C@H](CC(=O)O)NC(=O)[C@H](Cc1c[nH]cn1)NC(=O)[C@H](Cc1c[nH]c2ccccc12)NC(=O)[C@H](C)NC(=O)[C@@H](N)CCSC)C(=O)NCCCCC(NC(=O)C(CCCCNC(=O)CCCCCNC(=O)[C@H](CCCNC(=N)N)NC(=O)[C@H](CCCNC(=N)N)NC(=O)[C@H](CCCNC(=N)N)NC(=O)[C@H](CCCNC(=N)N)NC(=O)[C@H](C)NC(=O)[C@H](Cc1ccccc1)NC(=O)[C@H](CCC(=O)O)NC(=O)[C@H](CCC(=O)O)NC(=O)[C@H](CC(=O)O)NC(=O)[C@H](CC(=O)O)NC(=O)[C@H](Cc1c[nH]cn1)NC(=O)[C@H](Cc1c[nH]c2ccccc12)NC(=O)[C@H](C)NC(=O)[C@@H](N)CCSC)NC(=O)CCCCCNC(=O)[C@H](CCCNC(=N)N)NC(=O)[C@H](CCCNC(=N)N)NC(=O)[C@H](CCCNC(=N)N)NC(=O)[C@H](CCCNC(=N)N)NC(=O)[C@H](C)NC(=O)[C@H](Cc1ccccc1)NC(=O)[C@H](CCC(=O)O)NC(=O)[C@H](CCC(=O)O)NC(=O)[C@H](CC(=O)O)NC(=O)[C@H](CC(=O)O)NC(=O)[C@H](Cc1c[nH]cn1)NC(=O)[C@H](Cc1c[nH]c2ccccc12)NC(=O)[C@H](C)NC(=O)[C@@H](N)CCSC)C(N)=O (some centres unmarked) — mean tissue distribution (C57BL/6 mouse female, brain; dose not given, 3 h; baseline: total): 0.52%
CC[C@H](C)[C@H](NC(=O)CN)C(=O)N[C@@H](CCCNC(=N)N)C(=O)N[C@@H](CCCCN)C(=O)N[C@@H](Cc1c[nH]c2ccccc12)C(=O)N[C@@H](Cc1ccccc1)C(=O)N[C@@H](CCCCN)C(=O)N[C@@H](CCCCN)C(=O)N[C@@H](C)C(=O)N[C@@H](C)C(=O)N[C@@H](Cc1c[nH]cn1)C(=O)N[C@H](C(=O)NCC(=O)N[C@@H](CCCCN)C(=O)N[C@@H](CCC(=O)O)C(=O)N[C@H](C(=O)NCC(=O)N[C@@H](CCCCN)C(=O)N[C@H](C(=O)N[C@@H](C)C(=O)N[C@@H](CC(C)C)C(=O)N[C@@H](CC(N)=O)C(=O)N[C@@H](C)C(=O)N[C@@H](CS)C(=O)N[C@@H](CC(C)C)C(=O)O)C(C)C)C(C)C)C(C)C — chronic toxic concentration (zebrafish embryos 4 hpf, E3 medium; 24 h): 5 µM

For quick reference, copied from above:
CCN(CC)CCOc1ccc(-c2nnn(Cc3ccc(OC)cc3)c2N)cc1 — remaining compound (human plasma; 120 min): 104%
CSCC[C@H](N)C(=O)N[C@@H](C)C(=O)N[C@@H](Cc1c[nH]c2ccccc12)C(=O)N[C@@H](Cc1c[nH]cn1)C(=O)N[C@@H](CC(=O)O)C(=O)N[C@@H](CC(=O)O)C(=O)N[C@@H](CCC(=O)O)C(=O)N[C@@H](CCC(=O)O)C(=O)N[C@@H](Cc1ccccc1)C(=O)N[C@@H](C)C(=O)N[C@@H](CCCNC(=N)N)C(=O)N[C@@H](CCCNC(=N)N)C(=O)N[C@@H](CCCNC(=N)N)C(=O)N[C@@H](CCCNC(=N)N)C(=O)NCCCCCC(=O)NCCCCC(NC(=O)CCCCCNC(=O)[C@H](CCCNC(=N)N)NC(=O)[C@H](CCCNC(=N)N)NC(=O)[C@H](CCCNC(=N)N)NC(=O)[C@H](CCCNC(=N)N)NC(=O)[C@H](C)NC(=O)[C@H](Cc1ccccc1)NC(=O)[C@H](CCC(=O)O)NC(=O)[C@H](CCC(=O)O)NC(=O)[C@H](CC(=O)O)NC(=O)[C@H](CC(=O)O)NC(=O)[C@H](Cc1c[nH]cn1)NC(=O)[C@H](Cc1c[nH]c2ccccc12)NC(=O)[C@H](C)NC(=O)[C@@H](N)CCSC)C(=O)NCCCCC(NC(=O)C(CCCCNC(=O)CCCCCNC(=O)[C@H](CCCNC(=N)N)NC(=O)[C@H](CCCNC(=N)N)NC(=O)[C@H](CCCNC(=N)N)NC(=O)[C@H](CCCNC(=N)N)NC(=O)[C@H](C)NC(=O)[C@H](Cc1ccccc1)NC(=O)[C@H](CCC(=O)O)NC(=O)[C@H](CCC(=O)O)NC(=O)[C@H](CC(=O)O)NC(=O)[C@H](CC(=O)O)NC(=O)[C@H](Cc1c[nH]cn1)NC(=O)[C@H](Cc1c[nH]c2ccccc12)NC(=O)[C@H](C)NC(=O)[C@@H](N)CCSC)NC(=O)CCCCCNC(=O)[C@H](CCCNC(=N)N)NC(=O)[C@H](CCCNC(=N)N)NC(=O)[C@H](CCCNC(=N)N)NC(=O)[C@H](CCCNC(=N)N)NC(=O)[C@H](C)NC(=O)[C@H](Cc1ccccc1)NC(=O)[C@H](CCC(=O)O)NC(=O)[C@H](CCC(=O)O)NC(=O)[C@H](CC(=O)O)NC(=O)[C@H](CC(=O)O)NC(=O)[C@H](Cc1c[nH]cn1)NC(=O)[C@H](Cc1c[nH]c2ccccc12)NC(=O)[C@H](C)NC(=O)[C@@H](N)CCSC)C(N)=O (some centres unmarked) — mean tissue distribution (C57BL/6 mouse female, brain; dose not given, 3 h; baseline: total): 0.52%
